Measured values pooled from the literature.
Lines come from different studies, so protocols differ. Several values in a cell are separate wells, animals, samples, runs or records. Numbers after ± are the reported error.
UCHL1: Ubiquitin carboxyl-terminal hydrolase isozyme L1 (UCHL1, Homo sapiens, UniProt P09936)
Chain of UniProt P09936 (whole entry, looked up): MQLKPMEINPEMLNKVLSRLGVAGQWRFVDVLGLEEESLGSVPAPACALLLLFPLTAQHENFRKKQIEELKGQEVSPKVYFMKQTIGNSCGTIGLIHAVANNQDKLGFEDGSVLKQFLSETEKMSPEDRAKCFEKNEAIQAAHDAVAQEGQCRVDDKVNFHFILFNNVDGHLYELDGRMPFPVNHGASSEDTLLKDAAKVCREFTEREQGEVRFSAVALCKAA

Structure (SMILES)	tested on	test	system	conditions	how to read	endpoint	result
OC(Cn1cncn1)(Cn1cncn1)c1ccc(F)cc1F	Nakaseomyces glabratus	EUCAST	–	48 h	–	MIC50	0.4 µM
CCc1nc(N)nc(N)c1-c1ccc(Cl)cc1	Toxoplasma gondii	ex vivo bradyzoite plaques	ME49	3 times EC90, continuous exposure	–	inhibition	inhibited
O=C(C#Cc1ccc(F)c(F)c1)c1ccccc1Cl	Pseudomonas aeruginosa	static biofilm	PA14	10 µM, 24 h	relative to: DMSO	biofilm formation	50%
CO[C@H]1/C=C/O[C@@]2(C)Oc3c(C)c(O)c4c(c3C2=O)C2=NC3(CCN(CC(C)C)CC3)NC2=C(NC(=O)/C(C)=C\C=C\[C@H](C)[C@H](O)[C@@H](C)[C@@H](O)[C@@H](C)[C@H](OC(C)=O)[C@@H]1C)C4=O	Mycobacteroides abscessus	bacterial growth	subsp. massiliense 095 clinical isolate	mixed morphotype	–	IC90	11.3 µM
O=C(CCl)Nc1nc(-c2cc(F)ccc2F)cs1	UCHL1	covalent, intact protein LC-MS	–	12.5 µM	–	labelling	9.83%
O=c1[nH]c(NCc2ccc(Cl)c(Cl)c2)nc2ncn(CCN3CCOCC3)c12	Clostridioides difficile	agar dilution anaerobic	3588	48 h	–	MIC	0.5 µg/mL
COc1ccccc1C(=O)C#Cc1ccc(F)c(F)c1	Pseudomonas aeruginosa	static biofilm	PA14	10 µM, 24 h	relative to: DMSO	biofilm formation	78%
CC(C)n1ncc2c(C(=O)NCC3(C)CNC3)cc(C3CC3)nc21	Enterovirus D68	cytopathic effect	RD, US/KY/14-18953	5 nM	–	cell protection	1.13% and -0.282%
OC(Cn1cncn1)(Cn1cncn1)c1ccc(F)cc1F	Nakaseomyces glabratus	–	CG3, azole-susceptible, RPMI 1640	24 h, 35 °C	–	MIC	25 µM
Nc1nc(-c2ccccc2)nc2[nH]nc(Nc3ccc(C(F)(F)F)cc3)c12	coxsackievirus B3	–	31-1-93, NMRI mice, CVB3 chronic myocarditis	oral, 100 mg/kg twice daily, day 12, dosed days 3 to 10, score scale 0 to 7	direction not given	clinical score	1.2
CCc1nn(C)c2nc(-c3ccc(C(=O)O)cc3)nc(NCc3ccc(F)cc3)c12	Cryptosporidium parvum	parasite growth, immunofluorescence imaging	HCT-8, Iowa	18 µM	–	inhibition	88.8% and 89.1%
COc1cc(C#C[C@@H](O)CC(C)C)ccc1O	Pseudomonas aeruginosa	static biofilm	PA14	10 µM, 24 h, static	relative to: DMSO	biofilm formation	69%
CC(C)(C)c1cc(/C=C(\C#N)C(N)=S)cc(C(C)(C)C)c1O	Toxoplasma gondii	parasite growth	HFF, bradyzoite, glutamine-induced	–	–	EC50	3.13 µM
COc1cc(C#CC(=O)c2ccccc2OC)ccc1O	Pseudomonas aeruginosa	RT-qPCR, item: lasB	biofilm cells	10 µM, 24 h	relative to: untreated	mRNA level	36%
CCN(CC)CCCC(C)Nc1ccnc2cc(Cl)ccc12 (stereo not shown)	hepatitis E virus	viral replication, Renilla luciferase replicon	S10-3 replicon, genotype 1	0.06 µM, 48 h	–	inhibition	23.1%
N=C(N)c1ccc(OCc2cc(Br)cc(COc3ccc(C(=N)N)cc3)c2)cc1	Escherichia coli	checkerboard	W3110	unit not given, together with: rifampicin	lower = stronger synergy	FICI	≤ 0.063
Cc1cc(OC(C)C)ccc1C(=O)C(C)(C)NC(=O)c1sccc1C	Botrytis cinerea	conidial germination	B05.10	0.01 µg/mL	–	inhibition	10.6 ± 0.3%
Cc1cn([C@H]2C[C@H](N=[N+]=[N-])[C@@H](CO)O2)c(=O)[nH]c1=O	HIV-1	viral cytopathic effect, XTT	CEM-SS, RF	together with: glutathione 2 mM	–	EC50	0.005 ± 0.001 µM
OC[C@H]1O[C@@H](O[C@@H]2[C@@H](O)[C@H](O[C@@H]3[C@@H](O)[C@H](O[C@@H]4[C@@H](O)[C@H](O[C@@H]5[C@@H](O)[C@H](O[C@H]6[C@H](O)[C@@H](CO)OC(O)[C@@H]6O)O[C@H](CO)[C@H]5O)O[C@H](CO)[C@H]4O)O[C@H](CO)[C@H]3O)O[C@H](CO)[C@H]2O)[C@H](O)[C@@H](O)[C@@H]1O (stereo partly shown)	Bacteroides uniformis	binding, ITC	–	pH 7.0, 25 °C, distal domain	–	-TΔS	19.2 kcal/mol
OC(Cn1cncn1)(Cn1cncn1)c1ccc(F)cc1F	Cryptococcus neoformans	–	–	concentration not given	–	biofilm inhibition	no effect
[H]/N=C(/NCCCCC)N/N=C/c1c[nH]c2ccc(OC)cc12	Toxoplasma gondii	parasite growth	HFF, bradyzoite, alkaline-induced	–	–	EC50	4.98 µM
OC[C@H]1O[C@@H](O[C@@H]2[C@@H](O)[C@H](O[C@@H]3[C@@H](O)[C@H](O[C@H]4[C@H](O)[C@@H](CO)OC(O)[C@@H]4O)O[C@H](CO)[C@H]3O)O[C@H](CO)[C@H]2O)[C@H](O)[C@@H](O)[C@@H]1O (stereo partly shown)	Bacteroides uniformis	binding, ITC	–	pH 7.0, 25 °C, distal domain	–	-TΔS	6.64 kcal/mol
Cc1cc(Nc2ccc(S(F)(F)(F)(F)F)cc2)n2nc(C(C)(F)F)nc2n1	Plasmodium falciparum	–	human	–	–	time to parasitaemia nadir, lower bound	54 h
N=C(N)c1ccc(OCc2ccccc2COc2ccc(C(=N)N)cc2)cc1	Escherichia coli	–	ATCC 25922	concentration not given, together with: rifampicin	–	MIC in combination	25 µg/mL
COc1cc(C#CC(=O)C2CCCCC2)ccc1O	Pseudomonas aeruginosa	static biofilm	PA14	10 µM, 24 h	relative to: DMSO	biofilm formation	42%
CCCC(=O)OCSc1ccccc1C(=O)NCCOc1ccnc2ccc(Cl)cc12	HIV-1	virus-induced cytopathic effect, inhibitor, XTT	CEM-SS, RF	6 days	–	EC50	> 46.3 µM

Structure (SMILES)	tested on	test	system	conditions	how to read	endpoint	result
CC1(C)CCC2=C(O1)c1ccccc1C(=O)C2=O	Toxoplasma gondii	parasite growth, luciferase reporter	HFF, tachyzoite	72 h	–	EC90	48.1 µM
N#Cc1cc(-c2nc3ccccc3s2)c(=O)n(NS(=O)(=O)c2ccccc2)c1N	human adenovirus 7	viral replication, plaque	HEp-2	non-toxic dose, mean of three titres	–	plaque reduction	50%
CCc1cc(Nc2cc(=O)n(CCCCO)c(=O)[nH]2)ccc1C	Clostridioides difficile	agar dilution anaerobic	ATCC 4381	48 h	–	MIC	4 µg/mL
COc1cccc(NC(=O)C(C#N)=Cc2ccc(C#N)cc2)c1	UCHL1	covalent, intact protein LC-MS	–	12.5 µM	–	labelling	25.9%
OC[C@H]1O[C@@H](O[C@@H]2[C@@H](O)[C@H](O[C@H]3[C@H](O)[C@@H](CO)OC(O)[C@@H]3O)O[C@H](CO)[C@H]2O)[C@H](O)[C@@H](O)[C@@H]1O (stereo partly shown)	Bacteroides uniformis	binding, ITC	–	pH 7.0, 25 °C, distal domain	–	ΔG	-24.7 kcal/mol
c1ccc(-c2ccc3c(c2)NC(C2Nc4cc(-c5ccccc5)ccc4O2)O3)cc1 (stereo not shown)	Leishmania martiniquensis	parasite growth	THP-1-derived macrophages, intracellular amastigotes	48 h	–	IC50	2.61 ± 1.22 µM
Cc1ccccc1C(=O)C#Cc1ccc(F)c(F)c1	Pseudomonas aeruginosa	static biofilm	PA14	10 µM, 24 h	relative to: DMSO	biofilm formation	71%
CCNCc1nc2c(N)nc3ccccc3c2n1CC(C)(C)O	Toxoplasma gondii	parasite growth	HFF, bradyzoite, alkaline-induced	–	–	EC90	107 µM
CC(=Nc1ccc(N=Cc2cnccn2)cc1)N(C)C	Necator americanus	–	infected hamsters, small intestine	oral, 50 mg/kg single, 24 h	–	worm count	0
Clc1ccc(C(c2ccc(Cl)cc2)n2cc[n+](CC(OCc3ccc(Cl)cc3Cl)c3ccc(Cl)cc3Cl)c2)cc1 (stereo not shown)	Toxoplasma gondii	parasite growth	HFF, bradyzoite, glutamine-induced	–	–	EC90	7.56 µM
C[C@@H](O)[C@H]1C(=O)N2C(C(=O)O)=C(SCCN=CN)C[C@H]12	Pseudomonas aeruginosa	–	BAA-2797, BALB/c mouse peritonitis, peritoneal fluid	dose not given	–	bacterial load	8.72 log CFU and 8.38 log CFU and 7.6 log CFU and 8.45 log CFU
CC[C@H]1CN2CCc3cc(OC)c(OC)cc3[C@@H]2C[C@@H]1C[C@H]1NCCc2cc(OC)c(OC)cc21	Toxoplasma gondii	bradyzoite growth	–	glutamine-induced bradyzoites, glucose-free medium	–	EC50	1.08 µM
O=C(C#Cc1ccc(F)c(F)c1)c1cccc(Cl)c1	Pseudomonas aeruginosa	RT-qPCR, item: lasB	biofilm cells	10 µM, 24 h	relative to: untreated	mRNA level	33%
CC(C)Oc1cccc(C(=O)C2CCCN(Cc3cnn(C(C)C)c3)C2)c1 (stereo not shown)	Trypanosoma cruzi	reporter translation, Renilla luciferase mRNA translation	cell-free extract	40 µM	relative to: DMSO	inhibition	-6.7%
Cl.Cl.NCc1ccc(-c2nc(-c3ccc(O[C@@H]4CCNC4)cc3)no2)cc1	Clostridioides difficile	spore germination	ATCC 43255	45 µM	–	activity	inactive
O=C(O[C@]12C[C@H]3C[C@H](C[C@H](C3)C1)C2)c1ccc(NCc2cc(O)ccc2O)cc1	Toxoplasma gondii	parasite growth, luciferase reporter	HFF, tachyzoite	72 h	–	EC50	6.57 µM
COc1cccc(C(O)C#Cc2ccc(O)c(OC)c2)c1 (stereo not shown)	Pseudomonas aeruginosa	static biofilm	PA14	10 µM, 24 h, static	relative to: DMSO	biofilm formation	62%
CCCC(=O)OCSc1ccccc1C(=O)NCCn1cc(C(=O)OCC)c(=O)c2cc3c(cc21)OCO3	HIV-1	virus-induced cytopathic effect, inhibitor, XTT	CEM-SS, RF	6 days	–	EC50	1.69 ± 0.46 µM
Cc1ccc(Nc2cnnc3ccc(-c4ccc(N5CCN(C)CC5)cc4)cc23)cn1	Leishmania donovani	–	B10R cells	–	–	EC50	0.9 µM
CC(=O)NC[C@H]1CN(c2ccc(N3CCOCC3)c(F)c2)C(=O)O1	Staphylococcus aureus	–	MRSA, 10 isolates	serum 75%	–	MIC50	4 µg/mL
NC[C@H]1O[C@H](O[C@H]2[C@H](O)[C@@H](O[C@H]3O[C@H](CO)[C@@H](O)[C@H](N)[C@H]3O)[C@H](N)C[C@@H]2N)[C@H](O)[C@@H](O)[C@@H]1O	Proteus vulgaris	–	CPCC 160013	8 µg per disc, 24 h, 37 °C	–	inhibition zone diameter	15.4 mm
OC[C@H]1O[C@@H](O[C@@H]2[C@@H](O)[C@H](O[C@@H]3[C@@H](O)[C@H](O[C@@H]4[C@@H](O)[C@H](O[C@H]5[C@H](O)[C@@H](CO)OC(O)[C@@H]5O)O[C@H](CO)[C@H]4O)O[C@H](CO)[C@H]3O)O[C@H](CO)[C@H]2O)[C@H](O)[C@@H](O)[C@@H]1O (stereo partly shown)	Bacteroides uniformis	binding, ITC	–	pH 7.0, 25 °C, middle domain	–	-TΔS	16.3 kcal/mol
CCc1nc(N)nc(N)c1-c1ccc(Cl)cc1	Toxoplasma gondii	[3H]uracil incorporation	human fibroblasts, RH wild type	10 µM	–	parasite survival	55.3%
COc1cc(/C=C/C(=O)O)ccc1O	HIV-1	viral infection	TZM-bl, NL4-3 (CXCR4-tropic)	48 h	–	IC50	> 100 µM
CCc1ccc(CN2CCCC(CNC(=O)c3cccc(OC)c3OC)C2)cc1 (stereo not shown)	Trypanosoma cruzi	reporter translation, Renilla luciferase mRNA translation	cell-free extract	40 µM	relative to: DMSO	inhibition	-7.3%
C=CC[C@@H]1c2ccc(OC)c(OC)c2CN2CCc3cc4c(cc3[C@H]12)OCO4	Staphylococcus aureus	–	P2rx7+/+ mice, skin wound infection	dose not given, day 5	relative to: day 0	relative wound size	0.46 and 0.26 and 0.79 and 0.23 and 0.39 and 0.4

A few entries again:
Structure (SMILES)	tested on	test	system	conditions	how to read	endpoint	result
Cc1ccc(Nc2cnnc3ccc(-c4ccc(N5CCN(C)CC5)cc4)cc23)cn1	Leishmania donovani	–	B10R cells	–	–	EC50	0.9 µM
OC[C@H]1O[C@@H](O[C@@H]2[C@@H](O)[C@H](O[C@@H]3[C@@H](O)[C@H](O[C@@H]4[C@@H](O)[C@H](O[C@H]5[C@H](O)[C@@H](CO)OC(O)[C@@H]5O)O[C@H](CO)[C@H]4O)O[C@H](CO)[C@H]3O)O[C@H](CO)[C@H]2O)[C@H](O)[C@@H](O)[C@@H]1O (stereo partly shown)	Bacteroides uniformis	binding, ITC	–	pH 7.0, 25 °C, middle domain	–	-TΔS	16.3 kcal/mol
CCN(CC)CCCC(C)Nc1ccnc2cc(Cl)ccc12 (stereo not shown)	hepatitis E virus	viral replication, Renilla luciferase replicon	S10-3 replicon, genotype 1	0.06 µM, 48 h	–	inhibition	23.1%
OC[C@H]1O[C@@H](O[C@@H]2[C@@H](O)[C@H](O[C@@H]3[C@@H](O)[C@H](O[C@H]4[C@H](O)[C@@H](CO)OC(O)[C@@H]4O)O[C@H](CO)[C@H]3O)O[C@H](CO)[C@H]2O)[C@H](O)[C@@H](O)[C@@H]1O (stereo partly shown)	Bacteroides uniformis	binding, ITC	–	pH 7.0, 25 °C, distal domain	–	-TΔS	6.64 kcal/mol
CC[C@H]1CN2CCc3cc(OC)c(OC)cc3[C@@H]2C[C@@H]1C[C@H]1NCCc2cc(OC)c(OC)cc21	Toxoplasma gondii	bradyzoite growth	–	glutamine-induced bradyzoites, glucose-free medium	–	EC50	1.08 µM
COc1cc(/C=C/C(=O)O)ccc1O	HIV-1	viral infection	TZM-bl, NL4-3 (CXCR4-tropic)	48 h	–	IC50	> 100 µM
CC(C)n1ncc2c(C(=O)NCC3(C)CNC3)cc(C3CC3)nc21	Enterovirus D68	cytopathic effect	RD, US/KY/14-18953	5 nM	–	cell protection	1.13% and -0.282%
[H]/N=C(/NCCCCC)N/N=C/c1c[nH]c2ccc(OC)cc12	Toxoplasma gondii	parasite growth	HFF, bradyzoite, alkaline-induced	–	–	EC50	4.98 µM
